# Results of several laboratories.
# Each numbered part is a random draw from the data of one study; scales do not carry over between parts. Changes are numbered by the printed parent chain.
# Chain of UniProt P10721 (whole entry, unmodified, looked up): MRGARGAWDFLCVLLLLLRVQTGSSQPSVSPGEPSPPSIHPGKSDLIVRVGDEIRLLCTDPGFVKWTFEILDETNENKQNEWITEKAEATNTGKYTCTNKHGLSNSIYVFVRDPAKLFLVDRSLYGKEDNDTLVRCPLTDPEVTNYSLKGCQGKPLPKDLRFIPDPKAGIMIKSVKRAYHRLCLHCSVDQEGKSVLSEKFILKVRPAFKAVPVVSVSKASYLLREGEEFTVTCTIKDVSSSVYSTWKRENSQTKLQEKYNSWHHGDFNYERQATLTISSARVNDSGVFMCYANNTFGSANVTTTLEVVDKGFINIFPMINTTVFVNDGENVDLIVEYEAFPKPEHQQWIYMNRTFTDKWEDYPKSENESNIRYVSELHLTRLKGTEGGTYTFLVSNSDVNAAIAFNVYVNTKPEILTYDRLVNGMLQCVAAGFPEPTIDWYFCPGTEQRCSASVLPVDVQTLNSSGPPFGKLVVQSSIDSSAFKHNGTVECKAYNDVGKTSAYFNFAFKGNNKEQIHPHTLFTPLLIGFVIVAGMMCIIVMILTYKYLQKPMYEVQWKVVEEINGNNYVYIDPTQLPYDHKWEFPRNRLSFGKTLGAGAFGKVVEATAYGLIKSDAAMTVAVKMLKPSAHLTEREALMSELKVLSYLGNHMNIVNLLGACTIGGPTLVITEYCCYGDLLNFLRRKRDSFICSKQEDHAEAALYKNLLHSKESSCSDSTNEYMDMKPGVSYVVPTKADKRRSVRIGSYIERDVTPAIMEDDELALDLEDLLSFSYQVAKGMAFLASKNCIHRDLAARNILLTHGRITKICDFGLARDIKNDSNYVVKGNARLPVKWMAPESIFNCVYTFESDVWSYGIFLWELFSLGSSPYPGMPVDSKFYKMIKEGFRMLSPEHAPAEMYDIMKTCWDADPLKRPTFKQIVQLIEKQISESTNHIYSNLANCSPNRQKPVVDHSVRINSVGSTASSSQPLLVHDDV
# Chain of UniProt Q8IVW4 (whole entry, looked up): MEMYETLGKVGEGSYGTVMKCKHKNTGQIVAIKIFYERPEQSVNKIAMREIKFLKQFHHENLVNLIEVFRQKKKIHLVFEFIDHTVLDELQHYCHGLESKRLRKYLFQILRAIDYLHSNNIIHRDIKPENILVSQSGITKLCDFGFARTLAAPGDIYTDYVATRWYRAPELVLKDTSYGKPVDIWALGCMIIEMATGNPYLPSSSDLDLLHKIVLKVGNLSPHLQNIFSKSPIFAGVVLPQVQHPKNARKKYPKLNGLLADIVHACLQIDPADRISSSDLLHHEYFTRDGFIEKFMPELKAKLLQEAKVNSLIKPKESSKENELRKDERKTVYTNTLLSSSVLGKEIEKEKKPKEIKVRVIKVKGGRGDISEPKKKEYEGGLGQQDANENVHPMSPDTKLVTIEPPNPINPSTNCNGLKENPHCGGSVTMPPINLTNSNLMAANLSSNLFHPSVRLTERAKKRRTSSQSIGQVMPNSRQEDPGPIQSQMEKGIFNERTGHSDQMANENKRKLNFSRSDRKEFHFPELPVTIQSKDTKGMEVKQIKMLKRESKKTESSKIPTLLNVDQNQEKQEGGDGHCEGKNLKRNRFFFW
# Chain of UniProt P07947 (whole entry, looked up): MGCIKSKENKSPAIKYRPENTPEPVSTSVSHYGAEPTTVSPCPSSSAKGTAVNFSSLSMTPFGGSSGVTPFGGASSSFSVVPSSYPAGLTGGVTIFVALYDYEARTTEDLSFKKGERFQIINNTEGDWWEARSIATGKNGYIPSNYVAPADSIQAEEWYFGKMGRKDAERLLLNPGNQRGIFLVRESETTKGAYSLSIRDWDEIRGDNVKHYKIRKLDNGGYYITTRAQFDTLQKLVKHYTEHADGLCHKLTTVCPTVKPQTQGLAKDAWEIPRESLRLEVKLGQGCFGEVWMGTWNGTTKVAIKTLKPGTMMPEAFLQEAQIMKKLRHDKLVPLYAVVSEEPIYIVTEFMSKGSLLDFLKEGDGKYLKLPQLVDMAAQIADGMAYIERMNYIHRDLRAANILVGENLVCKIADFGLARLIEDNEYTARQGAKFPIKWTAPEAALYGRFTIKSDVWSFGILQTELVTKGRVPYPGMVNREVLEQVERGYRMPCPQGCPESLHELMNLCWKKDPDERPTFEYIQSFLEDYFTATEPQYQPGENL
# Chain of UniProt Q12852 (whole entry, looked up): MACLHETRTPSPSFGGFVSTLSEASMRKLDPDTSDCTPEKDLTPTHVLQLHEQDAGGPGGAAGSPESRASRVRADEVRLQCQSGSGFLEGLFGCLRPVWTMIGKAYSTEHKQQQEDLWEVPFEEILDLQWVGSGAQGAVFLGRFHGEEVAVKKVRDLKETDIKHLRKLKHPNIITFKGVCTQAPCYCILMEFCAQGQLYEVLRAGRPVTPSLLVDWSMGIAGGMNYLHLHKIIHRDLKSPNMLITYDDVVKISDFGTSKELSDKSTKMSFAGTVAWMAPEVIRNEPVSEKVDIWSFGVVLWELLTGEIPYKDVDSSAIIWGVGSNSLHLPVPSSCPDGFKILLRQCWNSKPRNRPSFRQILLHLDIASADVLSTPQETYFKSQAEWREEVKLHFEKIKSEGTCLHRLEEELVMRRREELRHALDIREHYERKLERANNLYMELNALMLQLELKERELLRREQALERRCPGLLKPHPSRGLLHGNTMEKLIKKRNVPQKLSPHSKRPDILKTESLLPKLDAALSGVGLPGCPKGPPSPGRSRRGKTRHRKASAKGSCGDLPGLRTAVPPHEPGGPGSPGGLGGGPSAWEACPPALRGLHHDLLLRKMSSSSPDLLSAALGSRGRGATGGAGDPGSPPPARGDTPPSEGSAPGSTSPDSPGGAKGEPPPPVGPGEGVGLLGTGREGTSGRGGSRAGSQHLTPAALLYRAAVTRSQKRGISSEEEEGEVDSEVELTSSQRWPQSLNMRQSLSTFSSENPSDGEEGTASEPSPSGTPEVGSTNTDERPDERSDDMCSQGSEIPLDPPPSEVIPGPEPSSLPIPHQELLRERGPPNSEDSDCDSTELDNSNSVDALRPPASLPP
# Chain of UniProt P42338 (whole entry, looked up): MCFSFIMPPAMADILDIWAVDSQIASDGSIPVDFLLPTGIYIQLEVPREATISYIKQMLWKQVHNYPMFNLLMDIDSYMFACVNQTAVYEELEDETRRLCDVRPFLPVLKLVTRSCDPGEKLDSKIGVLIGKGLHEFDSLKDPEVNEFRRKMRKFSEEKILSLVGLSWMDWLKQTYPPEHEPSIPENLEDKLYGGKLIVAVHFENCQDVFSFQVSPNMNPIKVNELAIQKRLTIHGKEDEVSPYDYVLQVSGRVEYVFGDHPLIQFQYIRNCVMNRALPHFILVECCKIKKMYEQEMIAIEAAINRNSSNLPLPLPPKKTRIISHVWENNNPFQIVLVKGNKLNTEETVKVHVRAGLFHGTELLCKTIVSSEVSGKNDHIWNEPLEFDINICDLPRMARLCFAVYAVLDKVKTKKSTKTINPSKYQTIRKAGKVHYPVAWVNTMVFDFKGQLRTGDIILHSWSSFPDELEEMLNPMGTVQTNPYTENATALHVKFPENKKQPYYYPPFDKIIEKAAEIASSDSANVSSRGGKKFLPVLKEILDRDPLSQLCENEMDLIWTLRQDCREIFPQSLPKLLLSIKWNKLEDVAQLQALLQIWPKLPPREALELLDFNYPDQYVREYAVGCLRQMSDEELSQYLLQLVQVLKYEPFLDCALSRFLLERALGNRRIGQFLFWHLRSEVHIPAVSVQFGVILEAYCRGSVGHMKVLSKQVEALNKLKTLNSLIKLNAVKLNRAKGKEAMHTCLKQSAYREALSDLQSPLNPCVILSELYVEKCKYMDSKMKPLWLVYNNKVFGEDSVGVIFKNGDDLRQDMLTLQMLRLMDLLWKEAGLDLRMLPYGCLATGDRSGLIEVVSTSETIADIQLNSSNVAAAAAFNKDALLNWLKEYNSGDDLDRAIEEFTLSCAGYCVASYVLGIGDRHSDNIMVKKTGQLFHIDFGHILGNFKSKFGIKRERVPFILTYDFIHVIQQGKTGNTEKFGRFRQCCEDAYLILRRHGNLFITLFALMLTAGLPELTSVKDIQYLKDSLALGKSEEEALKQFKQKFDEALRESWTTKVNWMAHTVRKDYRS
# Chain of UniProt Q8TDR2 (whole entry, looked up): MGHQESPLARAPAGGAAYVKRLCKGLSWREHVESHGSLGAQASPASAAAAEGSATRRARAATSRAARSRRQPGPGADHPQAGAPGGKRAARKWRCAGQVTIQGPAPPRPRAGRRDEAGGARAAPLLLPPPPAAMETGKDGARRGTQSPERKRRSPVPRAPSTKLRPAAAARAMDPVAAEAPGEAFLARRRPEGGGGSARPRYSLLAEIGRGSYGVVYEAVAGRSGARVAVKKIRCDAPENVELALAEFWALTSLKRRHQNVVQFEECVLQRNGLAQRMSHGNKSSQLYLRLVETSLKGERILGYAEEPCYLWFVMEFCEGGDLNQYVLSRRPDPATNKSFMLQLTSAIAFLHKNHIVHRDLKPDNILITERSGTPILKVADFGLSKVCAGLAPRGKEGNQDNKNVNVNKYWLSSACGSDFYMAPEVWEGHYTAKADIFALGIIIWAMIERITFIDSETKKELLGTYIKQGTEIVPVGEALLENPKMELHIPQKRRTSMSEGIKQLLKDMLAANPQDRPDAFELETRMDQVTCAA
# Chain of UniProt P37023 (whole entry, looked up): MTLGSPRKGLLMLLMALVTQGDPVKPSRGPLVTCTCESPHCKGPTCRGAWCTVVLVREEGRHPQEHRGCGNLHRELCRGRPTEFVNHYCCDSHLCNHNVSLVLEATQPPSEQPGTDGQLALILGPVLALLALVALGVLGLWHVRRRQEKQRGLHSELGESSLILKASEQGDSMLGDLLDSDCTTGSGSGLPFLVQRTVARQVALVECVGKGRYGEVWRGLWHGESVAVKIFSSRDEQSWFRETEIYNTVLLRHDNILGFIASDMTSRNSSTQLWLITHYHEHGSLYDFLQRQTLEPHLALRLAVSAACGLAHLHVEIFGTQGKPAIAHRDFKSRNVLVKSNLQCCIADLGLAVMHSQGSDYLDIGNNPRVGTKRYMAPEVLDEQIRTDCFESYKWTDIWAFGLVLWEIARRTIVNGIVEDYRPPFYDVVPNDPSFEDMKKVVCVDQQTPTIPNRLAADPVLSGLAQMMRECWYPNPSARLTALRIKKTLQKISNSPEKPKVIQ

# Study 1
# Target: CCNA1, cyclin fold, Cln2 fusion (human)
# Method: yeast growth competition, sequencing
# Medium: yeast
# Notes: strong parent motif
# Reference: not given
# Reading: higher = stronger binding
# Starting sequence: viral docking peptide; YKVKRRLVFGADD; partner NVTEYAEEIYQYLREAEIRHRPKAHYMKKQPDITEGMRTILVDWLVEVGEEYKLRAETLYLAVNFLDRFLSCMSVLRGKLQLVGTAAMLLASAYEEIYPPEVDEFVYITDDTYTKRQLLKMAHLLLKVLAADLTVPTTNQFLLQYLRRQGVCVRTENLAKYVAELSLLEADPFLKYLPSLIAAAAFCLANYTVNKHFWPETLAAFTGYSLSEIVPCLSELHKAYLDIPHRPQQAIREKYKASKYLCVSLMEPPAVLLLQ
Substitution,normalised enrichment score
L7N,0.716
A11L,1.28
R6N,0.268
V3E,-0.0222
A11T,1.81

# Study 2
# SMILES: Cn1cncc1[C@@](O)(COc1ccc(C#N)cc1-c1ccc(OC(F)(F)F)cc1)c1ccc(C#N)cc1
# Method: competition with immobilised ligand
# Tested at: 1 µM
target,read-out,remaining binding
"STK35 (Homo sapiens, UniProt Q8TDR2)",cell-free assay,100%
"KIT (Homo sapiens, UniProt P10721, T670I/V559D)",cell-free assay,82%
"CDKL3 (Homo sapiens, UniProt Q8IVW4)",binding,81%
"PIK3CB (Homo sapiens, UniProt P42338)",cell-free assay,75%
"KIT (Homo sapiens, UniProt P10721)",cell-free assay,98%
"TLK2 (Homo sapiens, UniProt Q86UE8)",cell-free assay,97%
"ACVRL1 (Homo sapiens, UniProt P37023)",binding,100%
"MAP3K20 (Homo sapiens, UniProt Q9NYL2)",cell-free assay,85%
"COQ8A (Homo sapiens, UniProt Q8NI60)",cell-free assay,100%
"DCLK3 (Homo sapiens, UniProt Q9C098)",cell-free assay,94%
"MAP3K12 (Homo sapiens, UniProt Q12852)",cell-free assay,100%
"SGK3 (Homo sapiens, UniProt Q96BR1)",cell-free assay,100%
"DYRK1A (Homo sapiens, UniProt Q13627)",cell-free assay,99%
"KIT (Homo sapiens, UniProt P10721, V559D/V654A)",cell-free assay,100%

# Study 3
# Target: HLA class I histocompatibility antigen, C alpha chain, allele C*04:01 (Homo sapiens, UniProt P10321)
# Read-out: peptide-MHC binding
# Molecule type: peptide
# Tested at: concentration not given
Molecule,binding
RLYQYSFAK,inactive
MAWLFFWAI,inactive
HTLESPVEF,inactive
RYNCKCCWF,inactive
TYLSSSLFL,inactive
TFDVAPSRL,active
WTFTPTTPL,inactive
RARRLRRAL,inactive

# Mixed results
SMILES,target,read-out,action,tested at,reference,endpoint,value
O=C1NC(=O)c2c1c1c3ccccc3n3c1c1c2c2ccccc2n1[C@H]1CC[C@@H]3O1,"Tyrosine-protein kinase Yes (YES1, Homo sapiens, UniProt P07947)",enzyme activity,inhibitor,0.5 µM,control,remaining activity,31.9%

# For quick reference, copied from above (study 2):
target,read-out,remaining binding
"STK35 (Homo sapiens, UniProt Q8TDR2)",cell-free assay,100%
"KIT (Homo sapiens, UniProt P10721, T670I/V559D)",cell-free assay,82%
